# Published values gathered from unrelated publications.
# Lines come from different studies, so protocols differ. ± marks the error that the study gave.
SMILES,test,test system,conditions,Cmax
O=C(O)CCCCCCCCCCCCCCC(=O)O,,"human, plasma","concentration not given, endogenous baseline diurnal",269 ± 42 nM
Cc1ncc(CO)c(C(=O)O)c1O,,"human males, Hispanic/Latino, plasma","concentration not given, endogenous baseline level",3.3 ± 0.4 ng/mL
C[C@@H](O[C@H]1OCCN(Cc2n[nH]c(=O)[nH]2)[C@H]1c1ccc(F)cc1)c1cc(C(F)(F)F)cc(C(F)(F)F)c1,,"human, plasma","oral, 240 mg single dose, converted from mass concentration",7000 nM
Cc1ccc([C@@H]2O[C@H](CO)[C@@H](O)[C@H](O)[C@H]2O)cc1Cc1ccc(-c2ccc(F)cc2)s1,,"human, maintenance hemodialysis patients","oral, 300 mg once daily, steady state, mean",2580 ng/mL
CC(=O)N(C)[C@H]1CCN(C(=O)c2cnc3c(c2)C[C@](C)(c2ccc(F)cc2)N3)C1,,"healthy male human, plasma","oral, 30 mg once daily, geometric mean",709 nM
Cn1ncnc1[C@H]1c2n[nH]c(=O)c3cc(F)cc(c23)N[C@@H]1c1ccc(F)cc1,,"human patients, plasma","oral, 600 µg/m2 twice daily, day 1, monotherapy, dose level DL3, median",3.8 ng/mL
NC(=S)NN=Cc1ncccc1N,,"human, plasma","oral, 150 mg",344 ng/mL
CC(C)c1nc(N(C)S(C)(=O)=O)nc(-c2ccc(F)cc2)c1/C=C/[C@@H](O)C[C@@H](O)CC(=O)O,,"healthy human subjects, plasma","oral, 10 mg, geometric mean, with: fruquintinib 5 mg",3.38 ng/mL
CC(C)(C(=O)N1CCOc2c(C#N)cncc2C1)C(F)F,,"humans, both sexes, plasma","oral, 20 mg twice daily, day 14, geometric mean",353 ng/mL
COC(=O)N[C@@H](C)CNc1nccc(-c2cn(C(C)C)nc2-c2cc(Cl)cc(NS(C)(=O)=O)c2F)n1,,"human patients, plasma","oral, 450 mg twice daily, day 1, single dose, geometric mean, with: binimetinib 45 mg once daily",6150 ng/mL
NCCCS(=O)(=O)O,,"human, plasma","oral, 340 mg once daily, day 14, capsule, fasted, dosed days 8-14",1480 ng/mL
CC(C)[C@@H]1CC[C@@H](C)C[C@H]1OC(=O)O[C@@H](C)OC(=O)[C@H]1[C@@H]2C[C@H](F)[C@@](N)(C(=O)O)[C@@H]21,,"human, plasma","oral, 20 mg, fed, single dose",30.7 ng/mL
CCS(=O)(=O)Nc1ccc(Oc2ccc(F)cc2F)c(-c2cn(C)c(=O)c3[nH]ccc23)c1,,"human, plasma","oral, 2.5 mg, cycle 1 day 8, geometric mean",26.8 ng/mL
Cc1ccc(NC(=O)c2ccc(CN3CCN(C)CC3)cc2)cc1Nc1nccc(-c2cncc(-c3oncc3C)c2)n1,,"healthy human volunteers, plasma","oral, 200 mg/day, multiple ascending dose, steady state",5950 ± 1120 ng/mL
Fc1ccc([C@@H]2CCNC[C@H]2COc2ccc3c(c2)OCO3)cc1,,"human, all CYP2D6 genotypes","oral, 20 mg, steady state, geometric mean",31 ng/mL
Cc1noc(C)c1-c1cc(C(O)(c2ccccn2)c2ccccn2)c2nc(C3CC3)[nH]c2c1,,"human patients, plasma","oral, 2 mg, cycle 1 day 8, monotherapy",174 ng/mL
C[C@@H](Oc1ccc(S(C)(=O)=O)cc1C(=O)N1C[C@@H]2C[C@]2(c2cc(C(F)(F)F)on2)C1)C(F)(F)F,,"healthy human volunteers, fed high-fat meal, plasma","oral, 10 mg single, adjusted geometric mean",142 nM
CCN(CC)CCNC(=O)c1c(C)[nH]c(/C=C2\C(=O)Nc3ccc(F)cc32)c1C,item: total drug,"human, mild hepatic impairment, plasma","single dose, Child-Pugh classification",23.3 ng/mL
CN(C)N=Nc1[nH]cnc1C(N)=O,,"human patients, plasma","intravenous, 1000 mg/m^2 over 1 h, cycle 2 day 1, co-administered with another drug",44300 ng/mL
C[C@H](Oc1ccc(Br)cc1-c1ccon1)C(=O)O,,"healthy male humans, plasma","oral, 400 mg twice daily, day 10",31200 ng/mL

# A few entries again:
SMILES,test,test system,conditions,Cmax
Cc1noc(C)c1-c1cc(C(O)(c2ccccn2)c2ccccn2)c2nc(C3CC3)[nH]c2c1,,"human patients, plasma","oral, 2 mg, cycle 1 day 8, monotherapy",174 ng/mL
C[C@@H](Oc1ccc(S(C)(=O)=O)cc1C(=O)N1C[C@@H]2C[C@]2(c2cc(C(F)(F)F)on2)C1)C(F)(F)F,,"healthy human volunteers, fed high-fat meal, plasma","oral, 10 mg single, adjusted geometric mean",142 nM
CCN(CC)CCNC(=O)c1c(C)[nH]c(/C=C2\C(=O)Nc3ccc(F)cc32)c1C,item: total drug,"human, mild hepatic impairment, plasma","single dose, Child-Pugh classification",23.3 ng/mL
